{"data": "Earlier results, collected from citations in different studies", "note": "Numbers after ± are the reported error."}
{"Structure (SMILES)": "COc1cc2c(cc1C)nc1c(=O)[nH]c(=O)nc-1n2C[C@H](O)[C@H](O)[C@H](O)COP(=O)(O)O", "pKa": 5.32}
{"Structure (SMILES)": "Cn1ccc(=O)n(C)c1=O", "assay": "temperature dependence of H/D exchange", "test system": "acetate buffer", "setting": "C6-H carbon acid", "pKa": "34 ± 2"}
{"Structure (SMILES)": "O=C1NC(=O)C(c2ccccc2)(c2ccccc2)N1", "setting": "ionic strength 10 mM", "pKa": 8.36}
{"Structure (SMILES)": "N[C@@H](CS)C(=O)O", "pKa": 8.25}
{"Structure (SMILES)": "O=c1[nH]c2ccccc2n1CCCN1CCC(n2c(=O)[nH]c3cc(Cl)ccc32)CC1", "setting": "ionic strength 10 mM", "pKa": 8.1}
{"Structure (SMILES)": "O=S(=O)(O)CNc1nc(NCS(=O)(=O)O)nc(-c2ccccc2)n1", "setting": "acid side arm", "pKa": "~-2"}
{"Structure (SMILES)": "N[C@@H](Cc1ccc(O)c(I)c1)C(=O)O", "pKa": 7.9}
{"Structure (SMILES)": "COc1cccc(CCc2ccccc2OCC(CN(C)C)OC(=O)CCC(=O)O)c1 (racemic)", "setting": "acidic", "pKa": 3.78}
{"note": "Some of these lines once more:"}
{"Structure (SMILES)": "N[C@@H](CS)C(=O)O", "pKa": 8.25}
